Measurements from different studies.
Every numbered part comes from another study and shows a few of its results, in no order. Positions count from the first letter of the parent shown.
Chain of UniProt Q8TDX7 (whole entry, looked up): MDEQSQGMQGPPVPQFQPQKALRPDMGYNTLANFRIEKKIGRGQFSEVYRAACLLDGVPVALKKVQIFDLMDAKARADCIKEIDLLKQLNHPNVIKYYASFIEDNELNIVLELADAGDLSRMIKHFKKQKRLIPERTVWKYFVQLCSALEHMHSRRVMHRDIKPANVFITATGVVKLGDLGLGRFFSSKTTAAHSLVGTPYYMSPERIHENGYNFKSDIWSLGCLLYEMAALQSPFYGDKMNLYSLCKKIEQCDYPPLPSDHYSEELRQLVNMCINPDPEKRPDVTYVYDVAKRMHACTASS
Chain of UniProt Q96GD4 (whole entry, looked up): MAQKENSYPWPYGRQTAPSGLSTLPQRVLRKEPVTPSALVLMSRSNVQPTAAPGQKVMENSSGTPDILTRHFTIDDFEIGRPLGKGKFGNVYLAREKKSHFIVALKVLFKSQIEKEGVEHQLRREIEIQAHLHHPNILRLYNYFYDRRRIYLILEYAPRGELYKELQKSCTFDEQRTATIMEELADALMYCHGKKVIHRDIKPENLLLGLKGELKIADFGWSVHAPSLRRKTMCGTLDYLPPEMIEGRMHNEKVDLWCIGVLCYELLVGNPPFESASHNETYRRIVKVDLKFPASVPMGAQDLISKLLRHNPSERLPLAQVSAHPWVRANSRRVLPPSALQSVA
Chain of UniProt Q9H422 (whole entry, looked up): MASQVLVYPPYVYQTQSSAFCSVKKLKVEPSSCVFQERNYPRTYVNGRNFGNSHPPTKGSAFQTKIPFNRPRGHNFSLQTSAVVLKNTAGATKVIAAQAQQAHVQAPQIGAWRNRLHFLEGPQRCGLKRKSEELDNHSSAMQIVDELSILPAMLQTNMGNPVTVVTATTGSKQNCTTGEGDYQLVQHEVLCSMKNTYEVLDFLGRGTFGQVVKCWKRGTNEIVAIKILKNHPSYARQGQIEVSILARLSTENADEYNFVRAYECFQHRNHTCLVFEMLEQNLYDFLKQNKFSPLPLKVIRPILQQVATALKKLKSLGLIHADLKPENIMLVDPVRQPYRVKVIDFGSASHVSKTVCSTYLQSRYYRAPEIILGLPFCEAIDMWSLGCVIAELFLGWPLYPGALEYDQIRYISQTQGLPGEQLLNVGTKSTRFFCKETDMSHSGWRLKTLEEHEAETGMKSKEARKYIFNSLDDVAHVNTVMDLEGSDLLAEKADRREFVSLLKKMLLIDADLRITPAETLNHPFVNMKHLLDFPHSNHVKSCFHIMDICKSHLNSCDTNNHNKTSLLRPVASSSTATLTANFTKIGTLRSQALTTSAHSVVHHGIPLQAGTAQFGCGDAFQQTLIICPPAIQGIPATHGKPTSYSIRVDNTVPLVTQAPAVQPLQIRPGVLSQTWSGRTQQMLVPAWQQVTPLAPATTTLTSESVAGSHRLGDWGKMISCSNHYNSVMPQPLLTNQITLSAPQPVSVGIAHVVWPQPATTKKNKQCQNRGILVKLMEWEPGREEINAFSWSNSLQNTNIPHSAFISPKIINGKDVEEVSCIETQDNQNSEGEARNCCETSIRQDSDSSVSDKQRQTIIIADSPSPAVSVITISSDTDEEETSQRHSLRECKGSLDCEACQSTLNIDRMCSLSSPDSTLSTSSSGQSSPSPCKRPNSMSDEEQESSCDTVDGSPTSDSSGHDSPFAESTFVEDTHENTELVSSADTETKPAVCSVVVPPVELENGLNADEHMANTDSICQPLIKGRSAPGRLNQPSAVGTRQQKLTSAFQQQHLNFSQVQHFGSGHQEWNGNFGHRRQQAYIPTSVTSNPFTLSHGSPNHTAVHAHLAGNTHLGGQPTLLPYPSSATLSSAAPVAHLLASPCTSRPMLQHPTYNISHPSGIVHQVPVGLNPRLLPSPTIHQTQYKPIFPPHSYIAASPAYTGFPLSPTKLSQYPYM
Chain of UniProt Q9HC98 (whole entry, looked up): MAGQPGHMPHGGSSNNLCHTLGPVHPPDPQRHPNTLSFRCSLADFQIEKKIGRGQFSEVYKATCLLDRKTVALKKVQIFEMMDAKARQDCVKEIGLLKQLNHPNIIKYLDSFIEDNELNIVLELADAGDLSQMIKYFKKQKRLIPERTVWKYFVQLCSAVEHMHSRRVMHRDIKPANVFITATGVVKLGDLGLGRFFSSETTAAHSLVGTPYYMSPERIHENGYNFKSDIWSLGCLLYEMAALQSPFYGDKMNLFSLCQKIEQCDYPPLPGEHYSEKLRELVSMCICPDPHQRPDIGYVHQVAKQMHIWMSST
Chain of UniProt Q16832 (whole entry, looked up): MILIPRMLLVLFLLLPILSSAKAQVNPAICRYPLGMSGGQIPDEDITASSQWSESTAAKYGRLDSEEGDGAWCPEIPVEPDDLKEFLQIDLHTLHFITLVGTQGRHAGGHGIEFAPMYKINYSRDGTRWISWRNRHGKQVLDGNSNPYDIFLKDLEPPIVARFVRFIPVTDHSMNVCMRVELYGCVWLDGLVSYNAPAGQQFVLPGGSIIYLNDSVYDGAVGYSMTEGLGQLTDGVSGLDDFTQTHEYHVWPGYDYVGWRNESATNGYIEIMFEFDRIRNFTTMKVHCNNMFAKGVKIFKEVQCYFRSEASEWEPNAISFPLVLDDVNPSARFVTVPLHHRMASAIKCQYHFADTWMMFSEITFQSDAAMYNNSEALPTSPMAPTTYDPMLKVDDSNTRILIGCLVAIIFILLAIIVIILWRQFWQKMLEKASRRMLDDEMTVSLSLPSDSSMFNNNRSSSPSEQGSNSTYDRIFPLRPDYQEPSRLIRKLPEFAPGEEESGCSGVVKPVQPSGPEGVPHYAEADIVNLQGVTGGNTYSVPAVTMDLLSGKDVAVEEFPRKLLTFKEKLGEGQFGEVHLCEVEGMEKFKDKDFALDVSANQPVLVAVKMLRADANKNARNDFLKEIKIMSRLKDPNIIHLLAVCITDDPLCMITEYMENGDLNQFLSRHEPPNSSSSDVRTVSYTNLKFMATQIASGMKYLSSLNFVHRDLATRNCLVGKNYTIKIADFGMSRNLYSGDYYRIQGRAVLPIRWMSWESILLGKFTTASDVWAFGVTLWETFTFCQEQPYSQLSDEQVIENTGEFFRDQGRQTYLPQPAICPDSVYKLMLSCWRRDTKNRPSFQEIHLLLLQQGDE
Chain of UniProt O43293 (whole entry, looked up): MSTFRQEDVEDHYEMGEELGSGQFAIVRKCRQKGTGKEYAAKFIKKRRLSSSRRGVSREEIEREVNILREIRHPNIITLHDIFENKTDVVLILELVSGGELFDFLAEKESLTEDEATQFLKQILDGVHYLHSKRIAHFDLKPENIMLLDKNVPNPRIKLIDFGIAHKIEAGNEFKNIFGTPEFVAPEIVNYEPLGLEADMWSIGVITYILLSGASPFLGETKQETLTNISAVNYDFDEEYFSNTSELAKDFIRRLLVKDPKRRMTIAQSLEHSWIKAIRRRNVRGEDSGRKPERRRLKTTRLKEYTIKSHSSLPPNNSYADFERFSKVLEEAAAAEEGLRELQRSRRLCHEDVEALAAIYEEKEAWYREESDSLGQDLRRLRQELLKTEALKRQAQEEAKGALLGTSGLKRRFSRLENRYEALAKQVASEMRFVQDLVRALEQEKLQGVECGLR
Chain of UniProt P57078 (whole entry, looked up): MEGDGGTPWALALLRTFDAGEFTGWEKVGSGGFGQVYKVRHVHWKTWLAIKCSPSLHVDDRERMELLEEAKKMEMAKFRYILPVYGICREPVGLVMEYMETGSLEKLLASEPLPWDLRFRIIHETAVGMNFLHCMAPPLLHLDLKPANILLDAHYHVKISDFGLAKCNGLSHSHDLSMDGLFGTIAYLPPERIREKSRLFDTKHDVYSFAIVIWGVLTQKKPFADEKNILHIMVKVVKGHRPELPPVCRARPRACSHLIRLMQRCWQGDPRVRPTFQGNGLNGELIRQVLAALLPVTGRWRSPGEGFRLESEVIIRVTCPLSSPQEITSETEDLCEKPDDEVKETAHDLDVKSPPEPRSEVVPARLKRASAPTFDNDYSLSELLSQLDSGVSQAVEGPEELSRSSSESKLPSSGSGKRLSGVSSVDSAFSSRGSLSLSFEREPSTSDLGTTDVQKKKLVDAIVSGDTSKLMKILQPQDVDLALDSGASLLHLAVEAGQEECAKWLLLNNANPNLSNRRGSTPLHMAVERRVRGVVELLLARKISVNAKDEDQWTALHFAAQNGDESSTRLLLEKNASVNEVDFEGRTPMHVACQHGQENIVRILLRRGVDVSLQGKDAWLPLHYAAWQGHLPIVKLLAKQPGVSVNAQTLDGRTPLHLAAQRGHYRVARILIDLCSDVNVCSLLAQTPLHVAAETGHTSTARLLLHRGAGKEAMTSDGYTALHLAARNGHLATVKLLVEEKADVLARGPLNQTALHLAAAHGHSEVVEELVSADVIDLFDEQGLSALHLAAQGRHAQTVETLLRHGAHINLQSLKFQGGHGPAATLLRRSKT
Chain of UniProt P49760 (whole entry, looked up): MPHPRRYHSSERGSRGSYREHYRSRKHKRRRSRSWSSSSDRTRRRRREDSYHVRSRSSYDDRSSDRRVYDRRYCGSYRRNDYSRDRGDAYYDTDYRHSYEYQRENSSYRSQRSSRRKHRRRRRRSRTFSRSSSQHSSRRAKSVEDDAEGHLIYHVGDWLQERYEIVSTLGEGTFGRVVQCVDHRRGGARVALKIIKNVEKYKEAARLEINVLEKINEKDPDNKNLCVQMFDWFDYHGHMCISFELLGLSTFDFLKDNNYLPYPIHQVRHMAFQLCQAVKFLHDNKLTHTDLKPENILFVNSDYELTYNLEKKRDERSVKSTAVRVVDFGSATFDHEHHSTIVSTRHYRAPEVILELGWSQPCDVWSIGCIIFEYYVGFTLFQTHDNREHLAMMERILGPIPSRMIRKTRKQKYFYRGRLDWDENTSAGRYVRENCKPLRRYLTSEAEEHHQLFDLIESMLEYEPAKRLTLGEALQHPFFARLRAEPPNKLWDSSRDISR

Sample 1
Target: CCNB1, cyclin fold, Cln2 fusion (human)
Technique: yeast growth competition, sequencing
Matrix: yeast
Notes: weak parent motif
Reference: not given
Reading: higher = stronger binding
Parent: CDC6 docking peptide (human); TLKGRRLVFDNQL
`R6S` — result for “normalised enrichment score”: 0.123.
For `F9E`, “normalised enrichment score” read 0.435.
`L7S`: “normalised enrichment score” 0.0155.
`R5E` — result for “normalised enrichment score”: -0.306.
For `L2S`, “normalised enrichment score” read -0.588.
Under “normalised enrichment score”, `L13H` is recorded as -0.255.
`V8W`: “normalised enrichment score” 0.912.
For `G4A`, “normalised enrichment score” read 0.408.

Sample 2
Target: ABI1, truncated, D143A, DHFR fusion (Arabidopsis thaliana)
Technique: DHFR PCA, deep sequencing
Matrix: yeast
Notes: methotrexate growth selection, single substitutions
Added: (+)-ABA 0.0091 µM
Reference: wild-type fitted maximum
Reading: higher = stronger binding
Parent: PYL1, truncated, DHFR fusion (Arabidopsis thaliana); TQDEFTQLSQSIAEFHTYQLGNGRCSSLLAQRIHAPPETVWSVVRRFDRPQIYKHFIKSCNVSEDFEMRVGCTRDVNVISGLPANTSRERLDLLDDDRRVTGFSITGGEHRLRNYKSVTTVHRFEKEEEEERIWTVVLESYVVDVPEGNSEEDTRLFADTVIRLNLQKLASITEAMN
`T101G` — result for “relative binding score”: -6.71%.
`T1Q`: “relative binding score” 23.9%.
For `G102W`, “relative binding score” read 6.87%.
`F5L` — result for “relative binding score”: 45.9%.
`S117N`: “relative binding score” -3.26%.
For `N165S`, “relative binding score” read 2.18%.
`E139N`: “relative binding score” -3.55%.
Under “relative binding score”, `R74D` is recorded as -9.67%.

Sample 3
SMILES: CC(=O)N1CCC(c2ccc(C(=O)NC(=N)N)cc2C(F)(F)F)CC1
Effect on: cell-free assay
Technique: competition with immobilised ligand
Tested at: 1 µM
For NEK7 (Homo sapiens, UniProt Q8TDX7): remaining binding read 100%.
The remaining binding was 100% (CLK2 (Homo sapiens, UniProt P49760)).
For CAMKK2 (Homo sapiens, UniProt Q96RR4): remaining binding read 100%.
It gave 100% for remaining binding (FLT1 (Homo sapiens, UniProt P17948)).
For ALK (Homo sapiens, UniProt Q9UM73, C1156Y): remaining binding read 100%.
It gave 100% for remaining binding (DDR2 (Homo sapiens, UniProt Q16832)).
For DCLK2 (Homo sapiens, UniProt Q8N568): remaining binding read 93%.
DAPK3 (Homo sapiens, UniProt O43293) — remaining binding: 100%.
EGFR (Homo sapiens, UniProt P00533, L858R/T790M) — remaining binding: 100%.
The remaining binding was 94% (DSTYK (Homo sapiens, UniProt Q6XUX3)).
NEK6 (Homo sapiens, UniProt Q9HC98) — remaining binding: 100%.
The remaining binding was 100% (WEE2 (Homo sapiens, UniProt P0C1S8)).
Tyrosine-protein kinase ABL1, phosphorylated (ABL1, Homo sapiens, UniProt P00519) — remaining binding: 89%.
The remaining binding was 82% (HIPK3 (Homo sapiens, UniProt Q9H422)).
EGFR (Homo sapiens, UniProt P00533, del747-752/P753S) — remaining binding: 93%.
For Aurora kinase B (AURKB, Homo sapiens, UniProt Q96GD4): remaining binding read 100%.
It gave 76% for remaining binding (RIPK4 (Homo sapiens, UniProt P57078)).
It gave 85% for remaining binding (Macrophage colony-stimulating factor 1 receptor, autoinhibited (CSF1R, Homo sapiens, UniProt P07333)).

Further values, each from its own experiment
Species: mouse
Matrix: microsomes or S9
Tested at: 2 µM
Time: 0.5 h
For `CS(=O)(=O)N1CCN(Cc2ccc(Oc3cccc(C(F)(F)F)c3)c3c(N)n[nH]c23)CC1`, the remaining compound was 46.8%.
For `CC1=C2C(=NC3=C(C(=O)CCC3)C2c2ccc(C#N)cc2)N(c2nc(C)cc(C)n2)N1` (stereo not drawn), the remaining compound was 59%.

For quick reference, copied from above (sample 3):
The remaining binding was 94% (DSTYK (Homo sapiens, UniProt Q6XUX3)).
The remaining binding was 82% (HIPK3 (Homo sapiens, UniProt Q9H422)).
For CAMKK2 (Homo sapiens, UniProt Q96RR4): remaining binding read 100%.
